# Assay results gathered from unrelated publications.
# Each line is one published result; not all experiments were run side by side.
Structure (SMILES),test system,setting,AUC(0-inf)
CC(=O)O[C@@]12CO[C@@H]1C[C@H](O)[C@@]1(C)C(=O)[C@H](O)C3=C(C)[C@@H](OC(=O)[C@H](O)[C@@H](NC(=O)OC(C)(C)C)c4ccccc4)C[C@@](O)([C@@H](OC(=O)c4ccccc4)[C@H]21)C3(C)C,"human, plasma","intravenous, 75 mg/m², patients",1530 ng·h/mL
O=C(CCCCCCC(=O)Nc1ccccc1)NO,"human, serum","oral, 300 mg",2.48 µM·h
CC(C)(Sc1ccncc1-c1ccc(C#N)c2ccccc12)C(=O)O,"male human, plasma","oral, 2.5 mg, single dose, fasted",29.9 ng·h/mL
O=C(c1nc2n(n1)[C@H](c1ccccc1)C[C@@H]2F)C1CC1,"human, plasma","oral, 25 mg, single dose, fasted, healthy volunteers",4920 ng·h/mL
C[C@@H]1CCC[C@H](n2cnc(-c3cc(Cl)ccc3-n3cc(Cl)nn3)cc2=O)c2cc(ccn2)-c2c(cnn2C(F)F)NC1=O,"human, plasma","oral, 20 mg, single dose, fasted, healthy volunteers",1280 ng·h/mL
Nc1ccc(-c2nc([C@H]3CCc4cc(-c5cc(Cl)ccc5-n5cnnn5)cc(=O)n43)c(F)[nH]2)c(F)n1,"human, plasma","oral, 300 mg, single dose, fasted",61600 ng·h/mL
CS(=O)(=O)n1cc2c(n1)CN([C@H]1CO[C@H](c3cc(F)ccc3F)[C@@H](N)C1)C2,"male human, plasma","oral, 5 mg, single dose, fasted",6.27 µM·h
CNC(=O)c1ccccc1Sc1ccc2c(/C=C/c3ccccn3)n[nH]c2c1,"human, plasma","oral, 10 mg, single dose, fed",288 ng·h/mL
O=C(/C=C/c1cccc(S(=O)(=O)Nc2ccccc2)c1)NO,"human, plasma","intravenous, 800 mg/m², patients",66.7 µM·h
CC#CC(=O)N[C@H]1CCCN(c2c(F)cc(C(N)=O)c3[nH]c(C)c(C)c23)C1,"human, plasma","oral, 0.3 mg, single dose",2.4 ng·h/mL
COc1cccc(-c2ccc(NC(=O)C3=C(C(=O)O)CCC3)c(F)c2)c1,"male human, plasma","oral, 30 mg, single dose, fasted, healthy volunteers",138000 ng·h/mL
Cc1[nH]c2ccccc2c1CCNCc1ccc(/C=C/C(=O)NO)cc1,"human, plasma","oral, 20 mg, single dose, fed",144 ng·h/mL
CCOc1cc([C@@H](CS(C)(=O)=O)N2C(=O)c3cccc(NC(C)=O)c3C2=O)ccc1OC,"male human, plasma","oral, 20 mg, single dose, healthy volunteers",2180 ng·h/mL
C[C@H]1CO[C@@H]2Cn3cc(C(=O)NCc4ccc(F)cc4F)c(=O)c(O)c3C(=O)N12,"human, plasma","oral, 30 mg, single dose, fed, healthy volunteers",169000 ng·h/mL
CCCOc1ccc([C@H]2CNC(=O)N2c2ccc3[nH]cnc3c2)cc1,"human, plasma","oral, 1200 mg, single dose, fed, healthy volunteers",17900 ng·h/mL
CCOc1ccc(Cc2cc([C@@H]3S[C@H](CO)[C@@H](O)[C@H](O)[C@H]3O)c(OC)cc2C)cc1,"human, plasma","oral, 9 mg, single dose, fasted, healthy volunteers",3050 ng·h/mL

# Repeated from above:
Structure (SMILES),test system,setting,AUC(0-inf)
CCOc1ccc(Cc2cc([C@@H]3S[C@H](CO)[C@@H](O)[C@H](O)[C@H]3O)c(OC)cc2C)cc1,"human, plasma","oral, 9 mg, single dose, fasted, healthy volunteers",3050 ng·h/mL
